{"data": "Published values from different studies", "note": "Every numbered part comes from another study and shows a few of its results, in no order. Substitutions count along the parent as printed."}
{"data": "Sample 1", "target": "ATF5, bZIP domain (human)", "technique": "DHFR protein complementation", "matrix": "yeast", "setting": "single substitutions, most at no-binding floor", "relative to": "wild-type JUN-FOS pair", "reading": "higher = stronger binding", "parent": "JUN, bZIP domain (human); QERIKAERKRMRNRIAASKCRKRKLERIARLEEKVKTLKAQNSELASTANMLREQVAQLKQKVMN; partner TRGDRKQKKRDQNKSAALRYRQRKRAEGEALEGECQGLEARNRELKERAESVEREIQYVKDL"}
{"Substitution": "K36Y", "binding fitness": "-1.24 natural log"}
{"Substitution": "L45N", "binding fitness": "-1.54 natural log"}
{"Substitution": "Q55L", "binding fitness": "-1.3 natural log"}
{"Substitution": "I28T", "binding fitness": "-1.4 natural log"}
{"Substitution": "S47A", "binding fitness": "-1.55 natural log"}
{"Substitution": "A49P", "binding fitness": "-1.54 natural log"}
{"Substitution": "K36F", "binding fitness": "-1.49 natural log"}
{"Substitution": "L31K", "binding fitness": "-1.43 natural log"}
{"Substitution": "E33M", "binding fitness": "-1.35 natural log"}
{"Substitution": "T37P", "binding fitness": "-1.51 natural log"}
{"Substitution": "E44W", "binding fitness": "-1.46 natural log"}
{"Substitution": "K36Q", "binding fitness": "-1.37 natural log"}
{"Substitution": "E54G", "binding fitness": "-1.4 natural log"}
{"Substitution": "A49H", "binding fitness": "-1.3 natural log"}
{"Substitution": "A49V", "binding fitness": "-1.43 natural log"}
{"Substitution": "Q41K", "binding fitness": "-1.49 natural log"}
{"Substitution": "S47H", "binding fitness": "-1.38 natural log"}
{"Substitution": "E54C", "binding fitness": "-1.52 natural log"}
{"Substitution": "R30Y", "binding fitness": "-1.46 natural log"}
{"data": "Sample 2", "target": "UBE2C UBC core domain (UniProt O00762)", "technique": "yeast two-hybrid", "matrix": "yeast", "setting": "mostly zero background", "relative to": "not given", "reading": "higher = stronger interaction", "B1": "ZMIZ2 RING domain (UniProt Q8NF64); chain GTIPGTPGPNGEDGVEQTAIKVSLKCPITFRRIQLPARGHDCRHIQCFDLESYLQLNCERGTWRCPVCNKTALLEGLEVDQYMLGILIYIQNSDYEEITIDPTCSWK", "B2": "MDM4 RING domain (UniProt O15151); chain MEDCQNLLKPCSLCEKRPRDGNIIHGRTGHLVTCFHCARRLKKAGASCPICKKEIQLVIKVF", "B3": "RNF19A RING domain (UniProt Q9NV58); chain ISKQIGDFIECPLCLLRHSKDRFPDIMTCHHRSCVDCLRQYLRIEISESRVNISCPECTERFNPHDIR", "B4": "SH3RF1 RING domain (UniProt Q7Z6J0); chain DESALLDLLECPVCLERLDASAKVLPCQHTFCKRCLLGIVGSRNELRCPECRTLVGSGVEEL", "B5": "RFWD3 RING domain (UniProt Q6PCD5); chain ASMDEEEGDTCTICLEQWTNAGDHRLSALRCGHLFGYRCISTWLKGQVRKCPQCNKKARHSDIVV", "B6": "DZIP3 RING domain (UniProt Q86Y13); chain PDEEEEEEEPCVICHENLSPENLSVLPCAHKFHAQCIRPWLMQQGTCPTCRLHVLLPEEFP", "Target sequence (chain)": "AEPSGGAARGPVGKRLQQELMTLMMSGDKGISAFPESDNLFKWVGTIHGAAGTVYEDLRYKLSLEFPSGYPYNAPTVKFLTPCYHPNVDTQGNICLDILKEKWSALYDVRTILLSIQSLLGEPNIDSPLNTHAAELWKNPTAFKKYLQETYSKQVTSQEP"}
{"Sequence": "B1 (ZMIZ2 RING domain)", "lacZ reporter activity": 0}
{"Sequence": "KETIKKTTKPCPRCHVPVEKNGGCMHMKCPQPQCRLEWCWNCGCEWNRVCMG (PRKN RING domain (UniProt O60260))", "lacZ reporter activity": 0}
{"Sequence": "B2 (MDM4 RING domain)", "lacZ reporter activity": 0}
{"Sequence": "FDGDVDPDLKCALCHKVLEDPLTTPCGHVFCAGCVLPWVVQEGSCPARCRGRLSAKELN (PDZRN3 RING domain (UniProt Q9UPQ7))", "lacZ reporter activity": 0}
{"Sequence": "GSRLQEINDVCAICYHEFTTSARITPCNHYFHALCLRKWLYIQDTCPMCHQKVYIEDDIK (RNF139 RING domain (UniProt Q8WU17))", "lacZ reporter activity": 0}
{"Sequence": "B3 (RNF19A RING domain)", "lacZ reporter activity": 0}
{"Sequence": "B4 (SH3RF1 RING domain)", "lacZ reporter activity": 0}
{"Sequence": "B5 (RFWD3 RING domain)", "lacZ reporter activity": 0}
{"Sequence": "B6 (DZIP3 RING domain)", "lacZ reporter activity": 0}
{"data": "Sample 3", "target": "RNA binding protein fox-1 homolog 2, RRM domain, GST-SBP tag (RBFOX2, Homo sapiens, UniProt O43251-10, residues 100-194)", "technique": "RNA Bind-n-Seq", "form": "RNA", "matrix": "in vitro", "concentration": "365 nM", "setting": "natural RNA segment, single round, ends assumed", "relative to": "no-protein control", "reading": "higher = stronger binding", "shared flanks, not repeated": "GGGAGUUCUACAGUCCGACGAUC … UGGAAUUCUCGGGUGCCAA", "Target sequence (chain)": "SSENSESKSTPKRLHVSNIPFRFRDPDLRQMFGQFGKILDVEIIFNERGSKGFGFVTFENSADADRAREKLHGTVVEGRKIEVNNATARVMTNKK"}
{"Sequence": "UGUACAAUGCCUUUUAAACCUUCCCCUUUUUCCAUACUUCCCAUAGGGCAUUUGUAGAAUUAGUGACCCACUGCAUGUCUGUCCCCAAGGCCGGGAAAAGAGACAGGCAG", "RBNS enrichment (R)": 0.862}
{"Sequence": "AGCAAGGUAGCUUGGAAUACCUUUUUUAAAAACAACUGGAUAUAAAUAUGUCUGACAGGAUUGGAAUCAGACUAUGUGAUUUGCUUGUAAAGAUUAGUUUCAGUGAGUCC", "RBNS enrichment (R)": 1.09}
{"Sequence": "CAAGAAUGUGGGAGUAUGUCUGCCGGUUUCAACACACACAGACAAACACAGCCACACGCGCACACAAGUAUAAGACUUUUUGUAUUACUGCUCCCUACUUAACAUACUUG", "RBNS enrichment (R)": 0.27}
{"Sequence": "GAGGACUCCAGGCAGCUGUGCUCCCAGGGCUCAUGUUCUCUACUGGAUUAGGGAUAGGCACCUCUGAAAUCUCCACCCUGAUGAUUGGAAUGAAACGGAGUGAACAUGAG", "RBNS enrichment (R)": 15.7}
{"Sequence": "CAUCUGUGCCAACGGUUGGACUUUUUAUGGCUGAGAUUCGGGAGGAAGUGUGACACCAAGCAGGAGAGGAAGAAUGAUUUUCUUUGUACUUAGGUUUUCUAAGGACAUUG", "RBNS enrichment (R)": 1.44}
{"Sequence": "GAGGAGGCACCCUUGAAUGACUGCAGACCAGCUGUGGGCACUCGCUGCUCCUCCAGGAAAGGGUGAGGUCCGUGCUCAGCUAUGCUUGCAGGCCUGCUGUCCUCACUCCA", "RBNS enrichment (R)": 1.25}
{"Sequence": "CUCAGUCCUUGUAUUUCUCUUUUUCACUCUCUCUUCCACCCCAAGAUGGAAUCUUGGGGACAGGAGGGAGAGGGUUGGUAACUACUGUGAGCAAGUCCCCCAAGCCCUGA", "RBNS enrichment (R)": 0.279}
{"Sequence": "UCCAGAAGGACCUAGGAGAGUAGGUGAGCUUUCCAAAGUGAGAGACGAAUCUUUCUUUCUUUUUUUUUUUAAAGGGCAGGAUGGGUAUGCUUUGGGCUUUCUCCUUCUGU", "RBNS enrichment (R)": 0.342}
{"Sequence": "UCAUCUUCACCUGAUAAAGAUGGUUGCUGGUUUGGAAUCUACACCUGCACACUUUUACUUCUUCCGUCCUUCCUGUCUUUCAAAAUAAAAUCUUAUUUUGGCAAAGGCAA", "RBNS enrichment (R)": 0.351}
{"Sequence": "GUGAGAUAAUUUCGGUUCAGUAAAUUGGCCAAUCUUUUUAUUUUUCUAAGACACAGAAAUGUAUUUAAUAAAAACCUCGAGAGAGUGAUGGGUGGAACCCCUUCUCCUUG", "RBNS enrichment (R)": 0.573}
{"Sequence": "ACCAGAAGGGGCUGAGCCCCACCCUGGAGUGGGCUUGCACCUGGUAGGUGUGCAAGAAGCCAUUUCCCCAUAAGCACUGGCCUUUGAUGGCCCCCUCAGCCUACCUGGUG", "RBNS enrichment (R)": 0.6}
{"Sequence": "UACAAAUAUUUUGAAAAAUAUGAAUAAACAUGAACUUUUAAAAGCUGCUGAACUACAGCUUAGUGAAAAGUUUCCAGUACCUGUCCUGCAAUCUCUCCUCCUGCAAGGGA", "RBNS enrichment (R)": 0.601}
{"data": "Sample 4", "target": "Ras GTPase-activating protein-binding protein 1, C-terminal RGG region (G3BP1, Homo sapiens, UniProt Q13283)", "technique": "RNA Bind-n-Seq", "form": "RNA", "matrix": "in vitro", "concentration": "1 µM", "setting": "whole 134-nt RNA, ends assumed", "added": "150 mM KCl", "relative to": "input library", "reading": "higher = stronger binding", "shared flanks, not repeated": "GGGAGUUCUACAGUCCGACGAUC … UGGAAUUCUCGGGUGUCAAGG", "sequence of UniProt Q13283 (whole entry, looked up)": "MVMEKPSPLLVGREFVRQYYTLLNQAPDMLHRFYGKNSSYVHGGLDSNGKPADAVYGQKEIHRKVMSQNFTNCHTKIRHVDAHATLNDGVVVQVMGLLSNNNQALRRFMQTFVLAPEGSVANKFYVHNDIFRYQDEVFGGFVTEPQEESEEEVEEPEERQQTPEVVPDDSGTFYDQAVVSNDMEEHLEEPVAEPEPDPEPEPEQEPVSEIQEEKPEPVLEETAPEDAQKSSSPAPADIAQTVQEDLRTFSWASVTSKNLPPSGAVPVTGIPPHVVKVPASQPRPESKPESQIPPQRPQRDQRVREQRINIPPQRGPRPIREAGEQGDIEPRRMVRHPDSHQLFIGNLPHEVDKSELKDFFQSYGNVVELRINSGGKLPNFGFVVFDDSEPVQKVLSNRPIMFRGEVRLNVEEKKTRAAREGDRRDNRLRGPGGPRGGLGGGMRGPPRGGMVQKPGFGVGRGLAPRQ"}
{"Sequence": "AAGUCCUGUGCUACACAUCGUAUGUACCGAAUCGGGGUUUGGGUUUGGGGUUUGGGGAAAGUAUUAUGUUACGCCGUUCGGAUCUGCACU", "log2 enrichment": 1.4}
{"Sequence": "UCCUCAAGUCCUGUGCUACACAUCGUAUGUACCGAAUCGGGUGGUGGGUGGGAAAGUAUUAUGUUACGCCGUUCGGAUCUGCACUUCCAG", "log2 enrichment": 1.24}
{"Sequence": "UGGCAUGGAUCCAGUGGGCUGAGACCACCCUCAUUCAGCGGGAUCAGGAGCCAAUCCCGCAGAACAUUGACCGAGUUAAAGCCCUUAUCG", "log2 enrichment": -1.37}
{"Sequence": "CCUCAAGUCCUGUGCUACACAUCGUAUGUACCGAAUCGGGUGGGGUGGGUGGGAAAGUAUUAUGUUACGCCGUUCGGAUCUGCACUUCCA", "log2 enrichment": 1.36}
{"Sequence": "CAAGUCCUGUGCUACACAUCGUAUGUACCGAAUCGGAAAGGUUUUUGGUUUUUGGAAAGUAUUAUGUUACGCCGUUCGGAUCUGCACUUC", "log2 enrichment": -1.86}
{"Sequence": "UGGCCCUGGUGGCAUGCGGGGAGGAAGAGGUGGCCUCAUGGAUCGUGGUGGUCCCGGUGGAAUGUUCAGGGGUGGCCGUGGUGGAGACAG", "log2 enrichment": 3.49}
{"Sequence": "UCAAGUCCUGUGCUACACAUCGUAUGUACCGAAUCGGUUUGGUUUGGGGUUUGGGAAAGUAUUAUGUUACGCCGUUCGGAUCUGCACUUC", "log2 enrichment": -1.22}
{"Sequence": "UCAAGUCCUGUGCUACACAUCGUAUGUACCGAAUCGGGAAGGGGAAGGGAAGGGGAAAGUAUUAUGUUACGCCGUUCGGAUCUGCACUUC", "log2 enrichment": 2.73}
{"Sequence": "AGUCCUGUGCUACACAUCGUAUGUACCGAAUCAAACCCCCAAACCCCCAAAUUUAAAAAAGUAUUAUGUUACGCCGUUCGGAUCUGCACU", "log2 enrichment": -0.992}
{"Sequence": "CUCAAGUCCUGUGCUACACAUCGUAUGUACCGAAUCGGAGGUUUUUGGUUUGGAAAGUAUUAUGUUACGCCGUUCGGAUCUGCACUUCCA", "log2 enrichment": -1.48}
{"Sequence": "UGUGAGACUGAAGAUUAUGGAGAAAAGUUUGAUGAAAAUGAUGUGAUUACAUGUUUUGCUGUAAGUUAAAGCUAACUUUCUAUGUAUAAA", "log2 enrichment": -2.25}
{"Sequence": "GCAGGAAGUAAAAACAAAUGGAAAUGCUUCGGAUAGUGGCAGGGGUGGGGGUUGCUAAGGAAAGGGUGGGAUGGGAGUGGGUAAGGAGUU", "log2 enrichment": 0.622}
{"Sequence": "AGUCCUGUGCUACACAUCGUAUGUACCGAAUCAAAUUUUUUUAAACCCAAACCCAAAAAAGUAUUAUGUUACGCCGUUCGGAUCUGCACU", "log2 enrichment": -1.15}
{"Sequence": "CCUGUGCUACACAUCGUAUGUACCGAAUCGGGGUUUUUUGGGGUUUUUUGGUUUUUUGGGGAAAGUAUUAUGUUACGCCGUUCGGAUCUG", "log2 enrichment": -1.2}
{"data": "Sample 5", "target": "CCNF, cyclin fold, Cln2 fusion (human)", "technique": "yeast growth competition, sequencing", "matrix": "yeast", "setting": "weak parent motif", "relative to": "not given", "reading": "higher = stronger binding", "parent": "DBF4 docking peptide (human); DDIVSKLVFDFVE"}
{"Substitution": "DDIVAKLVFDFVE [S5A]", "normalised enrichment score": -0.0381}
{"Substitution": "DDIVSKAVFDFVE [L7A]", "normalised enrichment score": -0.687}
{"Substitution": "DDIVSKLAFDFVE [V8A]", "normalised enrichment score": -0.751}
{"Substitution": "ADIVSKLVFDFVE [D1A]", "normalised enrichment score": 0.264}
{"Substitution": "DDIVSKLVFAFVE [D10A]", "normalised enrichment score": -0.112}
{"Substitution": "DDIVSKLVFDAVE [F11A]", "normalised enrichment score": -0.208}
